Published values pooled from the literature.
Lines come from different studies, so protocols differ. ± gives the spread as reported.
HCRTR1: Orexin/Hypocretin receptor type 1 (HCRTR1, Homo sapiens, UniProt O43613)
Chain of UniProt O43613 (whole entry, looked up): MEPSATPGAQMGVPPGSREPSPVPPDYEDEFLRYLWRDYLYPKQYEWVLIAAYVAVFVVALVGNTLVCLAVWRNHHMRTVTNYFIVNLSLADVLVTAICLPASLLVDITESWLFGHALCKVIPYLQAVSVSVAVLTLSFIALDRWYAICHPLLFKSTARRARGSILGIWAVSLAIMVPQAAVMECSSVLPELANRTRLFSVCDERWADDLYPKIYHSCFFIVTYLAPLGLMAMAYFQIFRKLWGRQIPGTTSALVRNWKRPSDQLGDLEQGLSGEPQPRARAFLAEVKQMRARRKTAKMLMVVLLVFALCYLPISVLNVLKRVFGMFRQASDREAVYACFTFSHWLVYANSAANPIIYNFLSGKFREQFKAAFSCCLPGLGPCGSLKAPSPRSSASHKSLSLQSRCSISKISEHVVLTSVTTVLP
PTGS2: Prostaglandin G/H synthase 2 (PTGS2, Homo sapiens, UniProt P35354)
Chain of UniProt P35354 (whole entry, looked up): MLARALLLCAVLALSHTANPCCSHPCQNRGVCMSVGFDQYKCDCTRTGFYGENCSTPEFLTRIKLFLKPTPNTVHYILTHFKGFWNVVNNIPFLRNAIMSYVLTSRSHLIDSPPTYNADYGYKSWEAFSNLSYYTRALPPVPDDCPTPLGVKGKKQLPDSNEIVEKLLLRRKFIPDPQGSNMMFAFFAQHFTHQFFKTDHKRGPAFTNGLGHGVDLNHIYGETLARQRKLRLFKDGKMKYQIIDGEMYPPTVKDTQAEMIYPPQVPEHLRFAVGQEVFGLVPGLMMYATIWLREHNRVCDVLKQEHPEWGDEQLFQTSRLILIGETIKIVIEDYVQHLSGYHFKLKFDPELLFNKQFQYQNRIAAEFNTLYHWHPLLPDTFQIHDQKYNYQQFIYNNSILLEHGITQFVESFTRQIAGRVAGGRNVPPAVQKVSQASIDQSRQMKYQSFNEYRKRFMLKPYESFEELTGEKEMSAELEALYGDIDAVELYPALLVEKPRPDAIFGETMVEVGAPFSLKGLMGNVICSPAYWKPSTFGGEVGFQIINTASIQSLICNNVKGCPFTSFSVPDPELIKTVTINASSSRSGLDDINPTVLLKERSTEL
PTGS1: Prostaglandin G/H synthase 1 (PTGS1, Ovis aries, UniProt P05979)
Chain of UniProt P05979 (whole entry, looked up): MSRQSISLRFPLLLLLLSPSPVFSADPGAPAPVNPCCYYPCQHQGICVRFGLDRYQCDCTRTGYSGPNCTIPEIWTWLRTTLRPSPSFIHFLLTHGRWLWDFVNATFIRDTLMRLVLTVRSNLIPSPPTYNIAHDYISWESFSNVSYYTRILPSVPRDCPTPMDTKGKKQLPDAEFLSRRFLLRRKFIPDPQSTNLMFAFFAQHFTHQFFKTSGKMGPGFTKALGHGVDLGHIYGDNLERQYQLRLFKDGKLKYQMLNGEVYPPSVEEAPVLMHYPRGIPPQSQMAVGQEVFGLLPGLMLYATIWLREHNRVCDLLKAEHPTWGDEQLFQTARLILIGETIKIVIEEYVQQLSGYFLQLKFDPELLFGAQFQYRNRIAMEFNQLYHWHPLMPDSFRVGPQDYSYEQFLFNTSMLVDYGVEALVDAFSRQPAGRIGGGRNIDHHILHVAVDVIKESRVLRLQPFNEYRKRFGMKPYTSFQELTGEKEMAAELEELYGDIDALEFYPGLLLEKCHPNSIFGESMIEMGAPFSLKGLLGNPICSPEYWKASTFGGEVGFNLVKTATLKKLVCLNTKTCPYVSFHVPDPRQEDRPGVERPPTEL
HDAC3: Histone deacetylase 3 (HDAC3, Homo sapiens, UniProt O15379)
Chain of UniProt O15379 (whole entry, looked up): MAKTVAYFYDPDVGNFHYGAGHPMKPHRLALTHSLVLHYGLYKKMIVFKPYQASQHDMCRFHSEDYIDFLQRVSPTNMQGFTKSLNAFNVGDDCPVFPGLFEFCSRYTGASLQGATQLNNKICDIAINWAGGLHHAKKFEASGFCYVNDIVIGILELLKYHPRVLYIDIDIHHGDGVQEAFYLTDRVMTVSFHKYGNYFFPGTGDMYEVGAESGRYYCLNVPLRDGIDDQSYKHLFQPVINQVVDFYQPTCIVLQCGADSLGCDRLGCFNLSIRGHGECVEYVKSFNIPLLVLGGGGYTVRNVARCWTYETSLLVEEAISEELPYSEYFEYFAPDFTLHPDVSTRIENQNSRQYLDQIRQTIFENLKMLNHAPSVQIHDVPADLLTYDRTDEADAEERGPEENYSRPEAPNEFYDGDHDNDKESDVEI
CPL: CPL (Toxoplasma gondii, UniProt Q6DMN0)
AR: Androgen receptor (AR, Homo sapiens, UniProt P10275)
Chain of UniProt P10275 (whole entry, looked up): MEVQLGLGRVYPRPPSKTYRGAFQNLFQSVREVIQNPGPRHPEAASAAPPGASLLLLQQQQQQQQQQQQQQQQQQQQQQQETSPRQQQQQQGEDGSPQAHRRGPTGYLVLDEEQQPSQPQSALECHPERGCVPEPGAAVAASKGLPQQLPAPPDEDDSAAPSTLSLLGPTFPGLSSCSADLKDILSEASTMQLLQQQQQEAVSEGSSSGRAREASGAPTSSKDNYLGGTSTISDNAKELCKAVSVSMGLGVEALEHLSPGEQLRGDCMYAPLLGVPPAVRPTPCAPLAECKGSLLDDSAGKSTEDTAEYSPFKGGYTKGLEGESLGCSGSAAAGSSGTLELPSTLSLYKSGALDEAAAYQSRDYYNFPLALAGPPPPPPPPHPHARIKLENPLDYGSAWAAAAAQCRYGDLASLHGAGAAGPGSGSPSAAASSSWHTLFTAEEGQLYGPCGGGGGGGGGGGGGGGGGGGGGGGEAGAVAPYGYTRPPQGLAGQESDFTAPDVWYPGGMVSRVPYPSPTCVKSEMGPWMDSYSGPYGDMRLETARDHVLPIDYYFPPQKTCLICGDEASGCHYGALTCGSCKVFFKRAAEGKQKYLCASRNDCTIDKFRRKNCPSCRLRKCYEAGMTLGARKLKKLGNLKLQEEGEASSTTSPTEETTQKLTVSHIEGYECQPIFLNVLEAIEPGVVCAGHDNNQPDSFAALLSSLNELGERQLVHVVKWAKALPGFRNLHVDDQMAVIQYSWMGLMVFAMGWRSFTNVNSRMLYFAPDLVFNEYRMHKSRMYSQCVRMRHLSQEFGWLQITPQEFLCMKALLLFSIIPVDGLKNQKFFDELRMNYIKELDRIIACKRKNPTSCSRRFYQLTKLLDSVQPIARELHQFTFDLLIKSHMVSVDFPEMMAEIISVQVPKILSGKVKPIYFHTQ
Chain of UniProt P00488 (whole entry, looked up): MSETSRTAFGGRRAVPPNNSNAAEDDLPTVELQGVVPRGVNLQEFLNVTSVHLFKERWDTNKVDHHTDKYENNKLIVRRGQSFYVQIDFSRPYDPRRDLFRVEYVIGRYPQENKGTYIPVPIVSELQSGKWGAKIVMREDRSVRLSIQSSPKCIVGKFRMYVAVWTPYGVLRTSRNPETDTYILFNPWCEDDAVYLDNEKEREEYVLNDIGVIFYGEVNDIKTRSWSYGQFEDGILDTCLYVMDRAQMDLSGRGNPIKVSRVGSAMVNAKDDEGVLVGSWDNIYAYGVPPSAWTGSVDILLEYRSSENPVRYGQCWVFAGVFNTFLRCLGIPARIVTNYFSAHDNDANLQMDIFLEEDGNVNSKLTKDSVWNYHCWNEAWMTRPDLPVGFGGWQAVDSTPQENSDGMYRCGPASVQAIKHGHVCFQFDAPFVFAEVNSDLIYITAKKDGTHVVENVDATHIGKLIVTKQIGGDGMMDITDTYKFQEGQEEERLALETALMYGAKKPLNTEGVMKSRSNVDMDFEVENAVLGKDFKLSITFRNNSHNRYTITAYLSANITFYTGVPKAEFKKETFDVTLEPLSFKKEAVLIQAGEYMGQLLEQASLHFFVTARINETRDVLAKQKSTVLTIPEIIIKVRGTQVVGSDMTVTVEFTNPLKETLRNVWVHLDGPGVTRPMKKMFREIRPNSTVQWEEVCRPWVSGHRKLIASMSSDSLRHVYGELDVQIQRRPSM
Chain of UniProt A0QSG6 (whole entry, looked up): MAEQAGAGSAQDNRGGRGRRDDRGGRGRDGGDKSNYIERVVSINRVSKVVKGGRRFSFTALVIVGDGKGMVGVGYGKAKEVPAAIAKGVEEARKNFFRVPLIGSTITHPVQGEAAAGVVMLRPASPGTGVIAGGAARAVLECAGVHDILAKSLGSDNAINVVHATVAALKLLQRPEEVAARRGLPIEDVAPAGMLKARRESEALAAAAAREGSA
Chain of UniProt Q9UKV0 (whole entry, looked up): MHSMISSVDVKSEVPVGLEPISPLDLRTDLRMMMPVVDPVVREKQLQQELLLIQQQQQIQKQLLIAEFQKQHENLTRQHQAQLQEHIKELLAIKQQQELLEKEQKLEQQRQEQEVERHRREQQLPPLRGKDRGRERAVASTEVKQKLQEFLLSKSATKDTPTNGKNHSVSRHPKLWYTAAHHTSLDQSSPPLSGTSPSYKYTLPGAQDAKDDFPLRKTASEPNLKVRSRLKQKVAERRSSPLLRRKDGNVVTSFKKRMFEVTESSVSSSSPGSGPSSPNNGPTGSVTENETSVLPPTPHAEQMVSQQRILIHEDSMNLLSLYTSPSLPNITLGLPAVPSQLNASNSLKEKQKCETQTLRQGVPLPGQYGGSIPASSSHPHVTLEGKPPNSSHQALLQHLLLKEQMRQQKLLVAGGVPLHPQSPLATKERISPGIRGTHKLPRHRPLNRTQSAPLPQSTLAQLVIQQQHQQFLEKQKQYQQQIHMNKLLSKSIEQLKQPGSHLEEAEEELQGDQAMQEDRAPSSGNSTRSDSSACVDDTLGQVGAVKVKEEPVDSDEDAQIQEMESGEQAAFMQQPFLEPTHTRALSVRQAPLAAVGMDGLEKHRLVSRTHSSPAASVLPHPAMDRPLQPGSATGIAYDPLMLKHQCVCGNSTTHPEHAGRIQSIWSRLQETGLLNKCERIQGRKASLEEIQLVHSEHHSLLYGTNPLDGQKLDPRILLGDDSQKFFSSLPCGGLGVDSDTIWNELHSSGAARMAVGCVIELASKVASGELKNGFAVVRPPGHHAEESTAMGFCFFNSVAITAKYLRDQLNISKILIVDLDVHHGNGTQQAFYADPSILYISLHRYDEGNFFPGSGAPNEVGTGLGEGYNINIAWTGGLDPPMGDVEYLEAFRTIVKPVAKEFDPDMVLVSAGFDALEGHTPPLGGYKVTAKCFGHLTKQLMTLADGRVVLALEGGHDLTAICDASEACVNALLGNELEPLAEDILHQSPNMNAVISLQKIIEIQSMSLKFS

Structure (SMILES)	tested on	assay	test system	setting	measurement	value
NC1CC1c1ccc(NC(=O)C(Cc2cccc3ccccc23)NC(=O)OCc2ccccc2)cc1 (stereo not shown)	Lysine-specific histone demethylase 1A, with CoREST (KDM1A, Homo sapiens, UniProt O60341)	demethylase activity, inhibitor, Amplex UltraRed HRP	–	15 min preincubation, together with: H3K4me1 peptide, CoREST	IC50	173 ± 28 nM
CCCCCc1cc(O)c2c(c1)OC(C)(C)C1CCC(C)=CC21 (single isomer, unassigned; (-))	Cytochrome P450 1A2 (CYP1A2, Homo sapiens, UniProt P05177)	enzyme activity, inhibitor	microsomes from HEK293 cells	pH 7.4, together with: phenacetin	Ki	2100 ± 620 nM
CC[C@H](C)[C@H](NC(=O)[C@H](Cc1ccccc1)NC(=O)[C@H](CCCN)NC(=O)[C@H](CCCNC(=N)N)NC(=O)[C@H](Cc1ccccc1)NC(=O)[C@H](Cc1ccccc1)NC(=O)[C@H](CCCN)NC(=O)[C@H](CO)NC(=O)[C@H](CC(C)C)NC(=O)[C@H](CCCNC(=N)N)NC(=O)[C@H](CCSC)NC(=O)[C@H](C)N)C(=O)N[C@@H](CC(C)C)C(=O)N[C@@H](CCC(N)=O)C(=O)N[C@@H](CCCNC(=N)N)C(=O)N[C@@H](CCCCN)C(=O)N[C@@H](CCCCN)C(=O)O	histidine kinase ComD (Streptococcus pneumoniae serotype 4, UniProt A0A0H2US84)	–	Streptococcus pneumoniae cells, Streptococcus pneumoniae	–	IC50	> 1000 nM
CC(N)CCc1ccccc1Cl (racemic)	DRD2 (Homo sapiens, UniProt P14416)	–	–	–	IC50	> 10000 nM
C[C@@H]1CCN(c2nc3ccc(Cl)cc3o2)CCN1S(=O)(=O)c1ccc2c(c1)OCCO2	HCRTR1	calcium signal, antagonist, fluorescence	–	–	IC50	200 nM
O=C(Nc1ccc(Br)cc1)c1cc(Br)cc(Br)c1O	Semaphorin-3C, with neuropilin-1 (SEMA3C, Homo sapiens, UniProt Q99985)	SEMA3C binding, inhibitor, displacement	–	together with: SEMA3C-AP	IC50	2980 nM
COc1cccc(/C=C/C(=O)c2cccc(C)c2)c1OC	PTGS2	enzyme activity, inhibitor, ELISA	–	–	IC50	58800 nM
CCCCCCCCCCCC1=C(O)C(=O)C=C(NCCN2CCOCC2)C1=O	PTGS1	enzyme activity, inhibitor, ELISA	–	–	IC50	3180 nM
O=C1c2c(O)cc(O)cc2O[C@@]2(c3ccc(O)c(O)c3)Oc3cc4oc(-c5ccc(O)cc5)c(O)c(=O)c4c(O)c3[C@@]12O	ACHE (Homo sapiens, UniProt P22303)	enzyme activity, inhibitor, Ellman	–	–	IC50	6250 nM
CC[C@@H]1NC(=O)[C@H]([C@H](O)[C@H](C)Cc2nc3ccc(C(=O)c4ccccc4)cc3[nH]2)N(C)C(=O)[C@H](C(C)C)N(C)C(=O)[C@H](CC(C)C)N(C)C(=O)[C@H](CC(C)C)N(C)C(=O)[C@@H](C)NC(=O)[C@H](C)NC(=O)[C@H](CC(C)C)N(C)C(=O)[C@H](C(C)C)NC(=O)[C@H](CC(C)C)N(C)C(=O)CN(C)C1=O	PPIA (Homo sapiens, UniProt P62937)	enzyme activity, inhibitor	–	–	IC50	14.1 nM
CC(C)C[C@@H]1NC(=O)[C@H](Cc2ccc(O)cc2)NC(=O)[C@H](CC(N)=O)NC(=O)[C@H](CO)NC(=O)[C@@H](NC(=O)[C@@H](NC(=O)[C@H](CC(N)=O)NC(=O)[C@H](Cc2ccc(O)cc2)NC(=O)[C@@H](N)CCCCN)C(C)C)CSC1=O	Accessory gene regulator protein C (Staphylococcus epidermidis, UniProt O86861)	–	–	–	IC50	75.8 nM
CC[C@H](C)[C@H]1C(=O)O[C@H](C(C)C)C(=O)N(C)[C@@H]([C@@H](C)CC)C(=O)O[C@H](C(C)C)C(=O)N(C)[C@@H]([C@@H](C)CC)C(=O)O[C@H](C(C)C)C(=O)N1C	HSP90AB1 (Homo sapiens, UniProt P08238)	progesterone receptor hormone-binding recovery, inhibitor, reconstitution with purified chaperones	–	5 purified chaperones	IC50	7500 to 10000 nM
CN[C@](C)(C[18F])C(=O)O	SK-OV-3 tumour model	–	host not given, tumour	15 min, tumour-bearing	tracer uptake	8.5 %ID/g
O=C(Nc1ccccc1)c1ccccc1O	HDAC9 (Homo sapiens, UniProt Q9UKV0)	enzyme activity, inhibitor, fluorescence	–	–	IC50	> 10000 nM
CSc1nc(Sc2nnnn2C)c2nnn(Cc3ccccc3Cl)c2n1	KDM1A (Homo sapiens, UniProt O60341)	enzyme activity, inhibitor, fluorescence	–	–	IC50	80 nM
COC(=O)C1CN1S(=O)(=O)c1ccc([N+](=O)[O-])cc1 (stereo not shown)	P4HB (Homo sapiens, UniProt P07237)	enzyme activity, inhibitor, absorbance	–	pH 7.6	IC50	41000 nM
COc1ccccc1C(c1c[nH]c2ccccc12)C(C#N)C#N (stereo not shown)	Cocaine esterase (CES2, Homo sapiens, UniProt O00748)	enzyme activity, inhibitor	human liver microsomes	pH 7.4, 37 °C, together with: fluorescein diacetate	IC50	7790 ± 1240 nM
Fc1ncc(C2CC3CCC2N3)cc1-c1cccnc1 (racemic)	Chrna7 (Rattus norvegicus, UniProt Q05941)	ion current, two-electrode voltage clamp	–	oocytes	IC50	99000 nM
N#Cc1c(C(F)(F)F)cc(-c2ccc(Cl)cc2)nc1SCC(=O)Nc1ccccn1	Trace amine-associated receptor 1 (Rattus norvegicus, UniProt Q923Y9)	–	–	–	IC50	2250 ± 580 nM
O=C(CCCCCCC(=O)Nc1cccc(N=Nc2ccccc2)c1)NO	HDAC3	enzyme activity, inhibitor	–	cis isomer, irradiated	IC50	22 ± 7 nM
CC(C)CCN(Cc1ccccc1C#N)c1nc(C#N)nc(N2CCOCC2)n1	CPL	enzyme activity, inhibitor, Z-L-R-AMC hydrolysis fluorescence	–	–	IC50	105 nM
COc1cc(-c2nn(C3CCC(N4CCN(C)CC4)CC3)c3ncnc(N)c23)ccc1NC(=O)OCc1ccccc1 (stereo not shown)	LIM domain kinase 1 (LIMK1, Homo sapiens, UniProt P53667)	enzyme activity, inhibitor	–	–	IC50	880 nM

Structure (SMILES)	tested on	assay	test system	setting	measurement	value
C=CCOC(=O)NCCCC[C@H](NC(=O)[C@H](Cc1ccc(O)cc1)NC(=O)CNC(=O)CNC(=O)[C@@H](NC(=O)[C@H](CO)NC(=O)[C@@H]1CCCN1C(=O)[C@H](C)NC(=O)[C@H](CO)NC(=O)[C@H](CCCC)NC(=O)[C@H](CCCNC(=N)N)NC(=O)[C@H](C)NC(=O)[C@H](C)NC(=O)[C@H](CCCCN)NC(C)=O)[C@@H](C)O)C(=O)NN	EZH2 (Homo sapiens, UniProt Q15910)	enzyme activity, inhibitor, radiometric	–	–	IC50	3300 nM
COC(=O)C=CCCC(NC(=O)c1ccncc1C(=O)O)C(=O)NC(C(=O)N1CC(=O)CC1C(=O)NC(C(=O)NC(C(N)=O)C1CCCCC1)C1CCCCC1)C(C)(C)C (stereo not shown)	Coagulation factor XIII A chain, with factor XIII B (F13A1, Homo sapiens, UniProt P00488)	isopeptidase activity, inhibitor	–	plasma-derived FXIII-A2B2, thrombin activated, together with: A101 substrate	IC50	10 ± 0.1 nM
C[C@@H]1CCN(c2nc3ccc(Cl)cc3o2)CCN1S(=O)(=O)c1ccccc1	HCRTR1	calcium signal, antagonist, fluorescence	–	–	IC50	8580 nM
Cc1ccc(Oc2ccc(Nc3ccccc3C(=O)O)cc2)cc1	AR	reporter gene, antagonist, MMTV-Luc reporter	MDA-kb2	20 h, together with: 0.2 nM DHT (EC50)	IC50	400 ± 200 nM
CC(C)(C)n1ccc(C(=O)N2CCCN(c3nc4ccccc4s3)CC2)c1	hh, C-terminal autoprocessing domain (Drosophila melanogaster, UniProt Q02936)	inhibitor, FRET	–	together with: C-H-Y reporter 0.1 µM and cholesterol 1.5 µM	IC50	1200 nM
O=C(CCCCCCC(=O)Nc1ccc(N=Nc2ccccc2)cc1)NO	HDAC3	enzyme activity, inhibitor	–	trans isomer	IC50	144 ± 52 nM
NNC(=O)c1ccc(-n2nc(-c3ccccc3O)nc2-c2ccccc2O)cc1	PTGS2	enzyme activity, inhibitor	–	–	IC50	940 nM
COc1ccc(N=Nc2cccc(NC(=O)CCCCCCC(=O)NO)c2)cc1	HDAC8 (Homo sapiens, UniProt Q9BY41)	enzyme activity, inhibitor	–	cis isomer, irradiated	IC50	445 ± 107 nM
CN(CCO)c1ccc(/C=C/C(=O)C(c2ccccc2)c2ccccc2)cc1	PTGS1	enzyme activity, inhibitor, ELISA	–	–	IC50	35700 nM
CC(C)C[C@H]1NC(=O)[C@H](CCCNC(=N)N)NC(=O)[C@H](CCCCN)NC(=O)[C@H](CC(=O)O)NC(=O)[C@H](CCCCN)NC(=O)[C@H](CO)NC1=O	Disintegrin and metalloproteinase domain-containing protein 8 (Homo sapiens, UniProt P78325)	CD23 shedding, inhibitor, ELISA	COS-7, co-transfected with CD23	–	IC50	570 ± 23 nM
CN(C)CCCOc1ccc(C2Sc3ccccc3NC3=C2C(=O)c2ccccc23)cc1 (racemic)	PFF0160c (Plasmodium falciparum, UniProt Q08210)	enzyme activity, inhibitor, absorbance	–	–	IC50	> 20000 nM
CC[C@H](C)[C@@H]1NC(=O)[C@H](CC(C)C)NC(=O)[C@@](C)(NC(=O)[C@H](Cc2ccccc2)NC(=O)[C@H](Cc2ccc(O)cc2)NC(=O)[C@H](C)NC(=O)[C@@H](N)[C@@H](C)O)CCCC=CCCC[C@@](C)(C(=O)NCC(=O)N[C@@H](CCCNC(=N)N)C(=O)N[C@@H](Cc2c[nH]c3ccccc23)C(N)=O)NC(=O)[C@H](CC(C)C)NC1=O	PC4 and SFRS1-interacting protein, with HIV integrase (Homo sapiens, UniProt O75475)	LEDGF/p75-integrase interaction, inhibitor	–	–	IC50	5000 nM
COc1ccc(-n2c(SCC#N)nnc2[C@H](Cc2ccccc2)NC(=O)Cc2c(C)[nH]c3ccccc23)cc1	HIV-1 capsid hexamer	CPSF6 binding, inhibitor, SPR competition	–	–	IC50	33.4 nM
COc1cc(C(=O)NCCOCCOCCOCCNC(=O)c2ccc([18F])nc2)ccc1NC(=O)C1NC(CC(C)(C)C)C(C#N)(c2ccc(Cl)cc2F)C1c1cccc(Cl)c1F (stereo not shown)	SJSA-1 tumour model	–	host not given, spleen	1 h, tumour-bearing	tracer uptake	1.02 %ID/g
NC1=NN=Cc2ccccc2[O][V](=[O])[O]1.c1cnc2c(c1)ccc1cccnc12	PTPN12 (Homo sapiens, UniProt Q05209)	enzyme activity, inhibitor	–	–	IC50	4280 nM
CC(C)[C@H](NC(=O)[C@H](CCC(=O)O)NC(=O)[C@@H](NC(=O)[C@@H](C)c1cccc(C(=O)c2ccccc2)c1)C(C)C)C(=O)N[C@@H](CCC(=O)O)C(=O)O	PTGS1	enzyme activity, inhibitor, fluorescence	–	–	IC50	20300 nM
CN[C@@H]1[C@H](O)[C@H](NC)[C@H]2O[C@]3(O)[C@H](O[C@@H]2[C@H]1O)O[C@H](C)C[C@]3(O)CNCc1ccc(F)cc1	Small ribosomal subunit protein uS5, 70S ribosome (rpsE, Mycolicibacterium smegmatis, UniProt A0QSG6)	translation, inhibitor, in vitro translation, luciferase	Mycobacterium smegmatis ribosomes	–	IC50	16.6 µg/mL
CC(C)CCN(Cc1ccc(F)cc1)c1nc(C#N)nc(N2CCOCC2)n1	CPL	enzyme activity, inhibitor, Z-L-R-AMC hydrolysis fluorescence	–	–	IC50	34 nM
CN[C@H](CC(C)C)C(=O)N[C@H]1C(=O)N[C@@H](CC(N)=O)C(=O)N[C@H]2C(=O)N[C@H]3C(=O)N[C@H](C(=O)N[C@H](C(=O)O)c4cc(O)cc(O)c4-c4cc3ccc4O)[C@H](O)c3ccc(c(Cl)c3)Oc3cc2cc(c3O[C@@H]2O[C@H](CO)[C@@H](O)[C@H](O)[C@H]2O[C@H]2C[C@](C)(NCc3ccc(C(=O)OCCCCCCN(Cc4ccccn4)Cc4ccccn4)cc3)[C@H](O)[C@H](C)O2)Oc2ccc(cc2Cl)[C@H]1O	Beta-lactamase L1 (Stenotrophomonas maltophilia, UniProt P52700)	enzyme activity, inhibitor, absorbance	–	–	IC50	11000 nM
O=C(O)c1ccccc1Nc1ccc(Sc2ccccc2)cc1	AR	reporter gene, antagonist, MMTV-Luc reporter	MDA-kb2	20 h, together with: 8 nM DHT (EC90)	IC50	14400 ± 5500 nM
CC(C)CCN(Cc1ccc(Cl)cc1)c1nc(C#N)nc(N2CCOCC2)n1	CPL	enzyme activity, inhibitor, Z-L-R-AMC hydrolysis fluorescence	–	–	IC50	32 nM

A few entries again:
Structure (SMILES)	tested on	assay	test system	setting	measurement	value
N#Cc1c(C(F)(F)F)cc(-c2ccc(Cl)cc2)nc1SCC(=O)Nc1ccccn1	Trace amine-associated receptor 1 (Rattus norvegicus, UniProt Q923Y9)	–	–	–	IC50	2250 ± 580 nM
O=C(CCCCCCC(=O)Nc1cccc(N=Nc2ccccc2)c1)NO	HDAC3	enzyme activity, inhibitor	–	cis isomer, irradiated	IC50	22 ± 7 nM
CC(C)CCN(Cc1ccccc1C#N)c1nc(C#N)nc(N2CCOCC2)n1	CPL	enzyme activity, inhibitor, Z-L-R-AMC hydrolysis fluorescence	–	–	IC50	105 nM
COc1cc(-c2nn(C3CCC(N4CCN(C)CC4)CC3)c3ncnc(N)c23)ccc1NC(=O)OCc1ccccc1 (stereo not shown)	LIM domain kinase 1 (LIMK1, Homo sapiens, UniProt P53667)	enzyme activity, inhibitor	–	–	IC50	880 nM
